Experimental data collected from several papers.
Each line is one published result; not all experiments were run side by side. “And” joins repeats or separate records; there may be more than shown. Numbers after ± are the reported error.

C=C/C=C/C[C@@H](C)[C@@H](O)[C@H]1C(=O)N[C@@H](CC)C(=O)N(C)CC(=O)N(C)[C@@H](CC(C)C)C(=O)N[C@@H](C(C)C)C(=O)N(C)[C@@H](CC(C)C)C(=O)N[C@@H](C)C(=O)N[C@H](C)C(=O)N(C)[C@@H](CC(C)C)C(=O)N(C)[C@@H](CC(C)C)C(=O)N(C)[C@@H](C(C)C)C(=O)N1C  plasma total Ca2+ (Wistar Kyoto rat, male, plasma; ip, 0.5 mg/kg/day, day 18): 2.61 ± 0.06 mmol/L
O=C(c1cc(Cc2n[nH]c(=O)c3ccccc23)ccc1F)N1CC(CNC2CC2)C1  haematocrit (Wistar Han rat, female, blood; oral, 15 mg/kg daily, 4 weeks): 45.7 ± 2.5%
O=C1NC2(CC2)COc2ncc(F)cc2[C@H]2COCCN2c2ccn3ncc1c3n2  aspartate aminotransferase activity (Sprague-Dawley rat, female, serum; oral, 10 mg/kg/day, 4 weeks daily, end of recovery period): 75.9 ± 13.9 U/L
CCCCCCCCCCCCCCCC(=O)N[C@@H](CCC(=O)NCCOCCOCCC(=O)NCCOCCOCCC(=O)NCCCC[C@H](NC(=O)[C@H](CC(=O)O)NC(=O)[C@H](CC(C)C)NC(=O)[C@H](Cc1ccc(O)cc1)NC(=O)[C@H](CCCCN)NC(=O)[C@H](CO)NC(=O)[C@H](Cc1ccc(O)cc1)NC(=O)[C@H](CC(=O)O)NC(=O)[C@H](CO)NC(=O)[C@@H](NC(=O)[C@H](Cc1ccccc1)NC(=O)[C@@H](NC(=O)CNC(=O)[C@H](CCC(N)=O)NC(=O)[C@@H](CO)NC(=O)[C@@H](N)Cc1c[nH]cn1)[C@@H](C)O)[C@@H](C)O)C(=O)N[C@@H](CCCNC(=N)N)C(=O)N[C@@H](CCCNC(=N)N)C(=O)N[C@@H](C)C(=O)N[C@@H](CCC(N)=O)C(=O)N[C@@H](CC(=O)O)C(=O)N[C@@H](Cc1ccccc1)C(=O)N[C@H](C(=O)N[C@@H](CCC(N)=O)C(=O)N[C@@H](Cc1c[nH]c2ccccc12)C(=O)N[C@@H](CC(C)C)C(=O)N[C@@H](CC(C)C)C(=O)N[C@@H](CC(N)=O)C(=O)N[C@H](C(=O)NCC(=O)NCC(=O)N1CCC[C@H]1C(=O)N[C@@H](CO)C(=O)N[C@@H](CO)C(=O)NCC(=O)N[C@@H](C)C(=O)N1CCC[C@H]1C(=O)N1CCC[C@H]1C(=O)N1CCC[C@H]1C(=O)N[C@@H](CO)C(N)=O)[C@@H](C)O)C(C)C)C(=O)O  serum enzyme activity (refers to: AST; Sprague-Dawley rat, male; subcutaneous, 20 µg/kg once daily, 14 days): 111 ± 22.9 U/L
CC(C)(CCCC/C=C/CCCCCC(C)(C)C(=O)O)C(=O)O  plasma concentration (ICR mice, plasma; oral, dose not given, 48 h): not detected
CC(C)Oc1cccc(/N=N/c2ccc3[nH]cc(CCN(C)C)c3c2)c1  trans isomer at photostationary state (light irradiation; solution; with: light 530 nm): 98%
CSCC[C@H](NC(=O)CNC(=O)[C@H](CCCCN)NC(=O)[C@H](CC(C)C)NC(=O)[C@@H]1CCCN1C(=O)[C@H](CO)NC(=O)[C@H](Cc1c[nH]cn1)NC(=O)[C@H](Cc1c[nH]c2ccccc12)NC(=O)[C@H](CCCNC(=N)N)NC(=O)[C@H](CC(C)C)NC(=O)[C@H](CCCNC(=N)N)NC(=O)[C@H](Cc1c[nH]c2ccccc12)NC(=O)[C@H](CS)NC(=O)CCCCCNC(=O)CN1CCN(CC(=O)O)CCN(CC(=O)O)CCN(CC(=O)O)CC1)C(=O)O [copper-64 labelled]  tissue uptake (male C57BL/6J mice, B16-F10 tumour, intestinal lymph node; intravenous, 1.85 MBq, 0.5 h): 6.17 %ID/g
COc1cnc2cccc(N3CCc4c(cc(Cn5ccnc5)cc4-c4cn(C)nc4C(F)(F)F)C3=O)c2c1  body weight (BALB/c nude mice, MV4-11 xenograft; intraperitoneal, 50 mg/kg, day 14): 22.2 g and 23.6 g and 24 g and 25.2 g and 21.2 g
CN1Cc2cc(Cl)ccc2-n2c(nnc2C2CCN(c3cccc([18F])n3)CC2)C1  total volume of distribution (PET two-tissue compartment model; rhesus monkey, occipital cortex; intravenous, dose not given, 80 min scan, baseline scan): 0.97 ± 0.36 mL/cm3
CC[C@H](C)[C@H](NC(=O)CN)C(=O)N[C@@H](CCCNC(=N)N)C(=O)N[C@@H](CCCCN)C(=O)N[C@@H](Cc1c[nH]c2ccccc12)C(=O)N[C@@H](Cc1ccccc1)C(=O)N[C@@H](CCCCN)C(=O)N[C@@H](CCCCN)C(=O)N[C@@H](C)C(=O)N[C@@H](C)C(=O)N[C@@H](Cc1c[nH]cn1)C(=O)N[C@H](C(=O)NCC(=O)N[C@@H](CCCCN)C(=O)N[C@@H](CCC(=O)O)C(=O)N[C@H](C(=O)NCC(=O)N[C@@H](CCCCN)C(=O)N[C@H](C(=O)N[C@@H](C)C(=O)N[C@@H](CC(C)C)C(=O)N[C@@H](CC(N)=O)C(=O)N[C@@H](C)C(=O)N[C@@H](CS)C(=O)N[C@@H](CC(C)C)C(=O)O)C(C)C)C(C)C)C(C)C  acute toxic concentration (zebrafish embryos 4 hpf, E3 medium; 1 h): 5 µM
N=C(N)NCCC[C@H](NC(=O)[C@H](CCCNC(=N)N)NC(=O)[C@H](CCCNC(=N)N)NC(=O)[C@H](CCC(N)=O)NC(=O)[C@H](CCCNC(=N)N)NC(=O)[C@H](CCCNC(=N)N)NC(=O)[C@H](CCCCN)NC(=O)[C@H](CCCCN)NC(=O)[C@H](CCCNC(=N)N)NC(=O)CNC(=O)[C@H](Cc1ccc(O)cc1)NC(=O)[C@H](Cc1ccccc1)NC(=O)[C@H](Cc1ccccc1)NC(=O)[C@H](Cc1ccccc1)NC(=O)Cc1ccc2ccccc2c1)C(=O)O  health score (C57BL/6 mice; intraperitoneal, 5 mg/kg, 24 h; direction not given): 5
CC[C@H](C)[C@H](NC(=O)[C@H](Cc1ccc(O)cc1)NC(=O)[C@@H](NC(=O)[C@H](CCCNC(=N)N)NC(=O)[C@@H](N)CC(=O)O)C(C)C)C(=O)N[C@@H](Cc1c[nH]cn1)C(=O)N1CCC[C@H]1C(=O)O  Cmax (Beagle dog both sexes, plasma; subcutaneous, 10 mg/kg/day, day 27, median): 841 ng/mL
C/C(=N\OCCCN1CCCCC1)c1ccc(C(F)(F)F)cc1  brain concentration (C57BL/6 mouse, brain; intravenous, 5 mg/kg, 0.5 h): 9730 ± 377 ng/g

A few entries again:
CSCC[C@H](NC(=O)CNC(=O)[C@H](CCCCN)NC(=O)[C@H](CC(C)C)NC(=O)[C@@H]1CCCN1C(=O)[C@H](CO)NC(=O)[C@H](Cc1c[nH]cn1)NC(=O)[C@H](Cc1c[nH]c2ccccc12)NC(=O)[C@H](CCCNC(=N)N)NC(=O)[C@H](CC(C)C)NC(=O)[C@H](CCCNC(=N)N)NC(=O)[C@H](Cc1c[nH]c2ccccc12)NC(=O)[C@H](CS)NC(=O)CCCCCNC(=O)CN1CCN(CC(=O)O)CCN(CC(=O)O)CCN(CC(=O)O)CC1)C(=O)O [copper-64 labelled]  tissue uptake (male C57BL/6J mice, B16-F10 tumour, intestinal lymph node; intravenous, 1.85 MBq, 0.5 h): 6.17 %ID/g
CC(C)Oc1cccc(/N=N/c2ccc3[nH]cc(CCN(C)C)c3c2)c1  trans isomer at photostationary state (light irradiation; solution; with: light 530 nm): 98%
